Experimental data from different studies.
Every numbered part comes from another study and shows a few of its results, in no order. Changes are numbered by the printed parent chain.

Set 1
Target: Interferon regulatory factor 7, full length, phosphomimetic (IRF7, Homo sapiens, UniProt Q92985, residues 1-503, S101K/S471D/S472D/S475D/S476D/S477D/S483D/S484D/S487D)
Method: protein-binding microarray
Molecule type: double-stranded DNA, one strand shown
Medium: in vitro
Tested at: 250 nM
Notes: 60-bp whole probe
Added: salmon DNA 0.4 mg/ml
Reference: random background probes
Direction: higher = stronger binding
Quantity: log fluorescence
All sequences stand within: GCCTAGCAC … GTCTTGATTCGCTTGACGCTGCTG
Residues (chain): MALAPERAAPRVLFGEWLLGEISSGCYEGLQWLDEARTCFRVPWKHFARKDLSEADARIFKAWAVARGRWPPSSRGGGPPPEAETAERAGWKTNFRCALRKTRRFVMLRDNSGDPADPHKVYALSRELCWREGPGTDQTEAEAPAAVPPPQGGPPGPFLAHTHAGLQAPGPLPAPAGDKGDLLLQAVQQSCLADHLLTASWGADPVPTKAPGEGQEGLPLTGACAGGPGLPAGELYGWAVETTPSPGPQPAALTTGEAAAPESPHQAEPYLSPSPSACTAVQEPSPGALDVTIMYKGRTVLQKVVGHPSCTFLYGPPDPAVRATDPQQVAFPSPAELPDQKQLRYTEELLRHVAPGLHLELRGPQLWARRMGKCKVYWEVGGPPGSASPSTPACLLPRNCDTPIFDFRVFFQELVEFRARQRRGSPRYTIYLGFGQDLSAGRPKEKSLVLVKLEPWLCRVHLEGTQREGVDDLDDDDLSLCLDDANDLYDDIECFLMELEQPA
CAGTAGATGGCGCCTGAGAGGTGCTAG: -0.553 z-score
TTAGGTTTCCTTATTCTTTAGTGCTAG: 2.16 z-score
GACGAACTGGGGTCTCGAGACGTGCTA: -0.304 z-score
TTAGATATCCGTATCGATTAGTGCTAG: 0.275 z-score
TCACGTCTCCACCTGGGACTGTGCTAG: 0.133 z-score
TTTCATTTTTTTTCATCATTGTGCTAG: 2.14 z-score
TCATATATGTGATTAAAACTGTGCTAG: 1.25 z-score
TCACCTATCTCCTCACAGACTGTGCTA: 0.376 z-score
GACTGTTTCGGTCTCGGGACGTGCTAG: 3.48 z-score
TCAAAAGTGTTTCTCAAACTGTGCTAG: -0.0532 z-score
GTCGGTATCGGGTATCGGGACGTGCTA: 0.99 z-score
TTAGATTTCAGACTGGACTAGTGCTAG: -0.172 z-score
GACGGTACCGGACTGGGGACGTGCTAG: -0.0887 z-score
TTAGGACTGAGACTGGGTTAGTGCTAG: -0.125 z-score
GACGGTATCCTACTGCAGACGTGCTAG: 0.0502 z-score
TCACTTCTCAATTAAAAACTGTGCTAG: 1.52 z-score
TTAGATATAGGGTTTCGATTAGTGCTA: 5.98 z-score
TTAGAACTGAGTCTCGACTAGTGCTAG: 0.146 z-score

Set 2
Target: RNA binding protein fox-1 homolog 2, RRM domain, GST-SBP tag (RBFOX2, Homo sapiens, UniProt O43251-10, residues 100-194)
Method: RNA Bind-n-Seq
Molecule type: RNA
Medium: in vitro
Tested at: 365 nM
Notes: natural RNA segment, single round, ends assumed
Reference: no-protein control
Direction: higher = stronger binding
Quantity: RBNS enrichment (R)
All sequences stand within: GGGAGUUCUACAGUCCGACGAUC … UGGAAUUCUCGGGUGCCAA
Residues (chain): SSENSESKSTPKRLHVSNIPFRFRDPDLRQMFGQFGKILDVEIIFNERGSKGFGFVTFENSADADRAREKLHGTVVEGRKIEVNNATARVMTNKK
AUCAUUGUCUGUUAAUAAUGUAUAAAAUGGCUAUCUUGUAAGUGUGCUGUCUUGGUACUAGUGUAGUGACUUUUUUUCUCCUCUUCUAGUACAUAUUGAUAGGUAUAAUG: 0.37
ACAUCAGCACUGCCAACUCGGCUGCAAUUGUGGACCUUCCCUACCAAAGGGAGUGUUGAAACUCAAGUCCCGCCCUGGCUCUUUAGAAUGGACCACUGAGAGCCACAGGA: 0.287
AAUCUGCUAUUUCUGUUGAAUGGGUCAGUCUUAAAGCUUUAAAAUUCACAUAGGUGGAGUUUCCCAUCUGAAGAUUUCUUUACAAGGACUUUGCUAAGUUCAUCUCAGGG: 0.246
CCCUUACUCAAAAUCAGAUAAUUAACAAUGAAGGAAACUCUAAACUCCCCUUAUGGUCUACCAGUAAUUCAUACUUGAGGACCAUGACUGUGGGGAAUGAGGCAUCUUUU: 0.361
UGUCCUUGCGGCCCUGUCUUCUGAGGUUCUCUGUCUGGGGUUGGCUCUCUUAACCCUUUCUCUGCUCCCAGCCUGCCUCACCAGGGAAGGUUGGAGGGGCCUCCCUCUGG: 0.658
CAUGUGGAUCAGGCCCAGGAAGGGCACAGGGGCUGAGCACUACAGAAGUCACAUGGGUUCUCAGGGUAUGCCAGGGGCAGAAACAGUACCGGCUCUCUGUCACUCACCUU: 0.441
AAGGCCAGGGAAGAAGGUAUGAAGAAAAGGUGAUUGAGAACUAAUUACCAAGGGAAACUGGCAAGACAACUGGAUGCGUGUAAUCCGAAUGGUCAUAAUGAGACAACAGC: 1.92
CUCCCUAUCCAUGGCACUAAACCACUUCUCUGCUGCCUCUGUGGAAGAGAUUCCUAUUACUGCAGUACAUACGUCUGCCAGGGGUAACCUGGCCACUGUCCCUGUCCUUC: 0.437
GGUAUUUCAUUUAUUCUUAUGGACAAAGCAAUGCAGCAUCAGGAGAUCAUUGGUGACAUUCUUCAGUUAUCAUUAUACUUUGCCGAAUUCUAUCACAGCACAGCAGGUCG: 0.958
AGCCACUCUGCCCACUAAAGUGCCCCACCAUGAAACAUUCUGGAGUUGGCCAUCCCAAAUUUCAUCGGUCCAUAGACACAAGCACAGAGCAAGAAACAAGGGCCUUAGAU: 0.688
UUGCUAACAUGCUCACAAAUGUGAGAGAAGAGUCAUUAAAAGCUUUACUUACUGGGUCAGUGCGUCAUUGACUCCUUUCUGUGUUUUGCCCAAUAAAUUAAUAAAAGACU: 0.389
GAACAGCCCAGUGCAGUCUAAACUUCAAUUGUGUUGAAACUACUUUAAUAGACAAAGUAAUAAAUCAUGUUUAUCUAUUGAUUUAAACUUCAUCAGUUUUGCAUCCUACU: 0.938

Set 3
Target: Sal-like protein 4, full length isoform B (SALL4, Homo sapiens, UniProt Q9UJQ4-2, residues 1-616)
Method: universal PBM
Molecule type: double-stranded DNA, one strand shown
Medium: in vitro
Tested at: not given
Notes: 8-mer, flanks averaged, mean of replicates
Direction: higher = stronger binding
Quantity: E-score
GCAATTTA: 0.184
GAATCGAC: -0.134
ATTGCACA: 0.14
ATTTTGTA: 0.272
AACGATTA: 0.139
AACCTGAG: -0.176
CCGTCTAC: -0.0839
CTTCTCCC: -0.0591
CGATTAGC: -0.148
AGACAGTA: 0.0923
CTTCCCAC: -0.112
ACCGGTTC: -0.308
GACATAGA: 0.124
AAAATGGC: 0.202
ACGCGAAT: 0.00274
AGATTTAA: 0.162
GCGAAGTA: 0.0896
AATCTCTG: 0.0664

Set 4
Target: Ras GTPase-activating protein-binding protein 1, full length (G3BP1, Homo sapiens, UniProt Q13283)
UniProt Q13283, sequence (whole entry, looked up): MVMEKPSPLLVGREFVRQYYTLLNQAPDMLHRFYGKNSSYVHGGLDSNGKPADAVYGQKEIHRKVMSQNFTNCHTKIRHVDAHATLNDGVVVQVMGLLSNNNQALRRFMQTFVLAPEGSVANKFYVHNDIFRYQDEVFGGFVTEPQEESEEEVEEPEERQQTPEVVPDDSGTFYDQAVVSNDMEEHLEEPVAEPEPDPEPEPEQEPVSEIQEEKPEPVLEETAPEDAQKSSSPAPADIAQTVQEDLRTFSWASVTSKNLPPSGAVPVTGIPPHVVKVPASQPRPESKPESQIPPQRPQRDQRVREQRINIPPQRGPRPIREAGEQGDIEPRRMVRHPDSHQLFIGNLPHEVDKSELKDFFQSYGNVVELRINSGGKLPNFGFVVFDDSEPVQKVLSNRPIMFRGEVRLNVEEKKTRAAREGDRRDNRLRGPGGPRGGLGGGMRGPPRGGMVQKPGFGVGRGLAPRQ
Method: RNA Bind-n-Seq
Molecule type: RNA
Medium: in vitro
Tested at: 200 nM
Notes: whole 134-nt RNA, ends assumed
Added: 150 mM KCl
Reference: input library
Direction: higher = stronger binding
Quantity: log2 enrichment
All sequences stand within: GGGAGUUCUACAGUCCGACGAUC … UGGAAUUCUCGGGUGUCAAGG
UUUGAUGACAGUCUGCAGGAGCUGCCUGGUGAAGUACCUGGAGGAGAACAACACCUGCCCCACCUGCAGGAUUGUGAUCCACCAGAGCCA: -0.88
UCCUGUGCUACACAUCGUAUGUACCGAAUCGGGGUUUUUUUGGGGUUUUUGGGGAGGGGAAAGUAUUAUGUUACGCCGUUCGGAUCUGCA: 0.634
UGGGAGGUGGAUUUUGUUUAUUUUUUUAGCUCAUUUCCAGGGGUGGGAAUUUUUUUUUAAUAUGUGUCAUGAGUAAAGUUGUUUUUGAAA: 0.377
AAGUCCUGUGCUACACAUCGUAUGUACCGAAUCGGGCCCCGGGGCCCCGGCCCCGGGAAAGUAUUAUGUUACGCCGUUCGGAUCUGCACU: -0.792
CCUCAAGUCCUGUGCUACACAUCGUAUGUACCGAAUCGGGGUUGGUUGGUUGGAAAGUAUUAUGUUACGCCGUUCGGAUCUGCACUUCCA: 0.0688
CAAGUCCUGUGCUACACAUCGUAUGUACCGAAUCGGAAAAAGGAAAAAGGUUUGGAAAGUAUUAUGUUACGCCGUUCGGAUCUGCACUUC: -1.44
GUCCUGUGCUACACAUCGUAUGUACCGAAUCGGGGAAAAAGGGGUUUUUGGGGAGGGGAAAGUAUUAUGUUACGCCGUUCGGAUCUGCAC: 0.439
CUCAAGUCCUGUGCUACACAUCGUAUGUACCGAAUCGGAAGGGAAGGAAGGGGAAAGUAUUAUGUUACGCCGUUCGGAUCUGCACUUCCA: 0.169
CUGUGCUACACAUCGUAUGUACCGAAUCGGGAAAAAAAGGAAAAAAAGGGGAAAAAAAGGGAAAGUAUUAUGUUACGCCGUUCGGAUCUG: -0.849
CUGUGCUACACAUCGUAUGUACCGAAUCGGGUUUUUUGGGGUUUUUUGGGGUUUUUUGGGGAAAGUAUUAUGUUACGCCGUUCGGAUCUG: -0.548

Set 5
Target: ABI1, truncated, D143A, DHFR fusion (Arabidopsis thaliana)
Method: DHFR PCA, deep sequencing
Medium: yeast
Notes: methotrexate growth selection, single substitutions
Added: (+)-ABA 200 µM
Reference: wild-type fitted maximum
Direction: higher = stronger binding
Quantity: relative binding score
Starting sequence: PYL1, truncated, DHFR fusion (Arabidopsis thaliana); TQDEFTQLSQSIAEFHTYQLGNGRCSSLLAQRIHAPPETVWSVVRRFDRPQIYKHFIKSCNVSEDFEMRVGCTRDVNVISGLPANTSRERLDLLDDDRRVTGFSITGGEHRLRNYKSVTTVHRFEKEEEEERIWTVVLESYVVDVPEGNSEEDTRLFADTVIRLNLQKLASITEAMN; partner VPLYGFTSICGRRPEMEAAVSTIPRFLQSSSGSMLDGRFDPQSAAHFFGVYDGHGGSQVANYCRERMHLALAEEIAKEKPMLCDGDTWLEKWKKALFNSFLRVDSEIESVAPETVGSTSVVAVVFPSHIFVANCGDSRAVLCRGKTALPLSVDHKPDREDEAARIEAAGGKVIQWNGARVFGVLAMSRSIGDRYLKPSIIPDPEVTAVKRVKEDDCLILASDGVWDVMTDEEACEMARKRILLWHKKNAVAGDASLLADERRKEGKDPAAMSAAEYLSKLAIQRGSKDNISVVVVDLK
E152T: 92.5%
D95T: 18.4%
G107V: 16.7%
T39H: 92.9%
N114D: 77.7%
R132D: 124%
A13R: 101%
Q167I: 86.1%
Q31G: 36.4%
P146Q: 38.9%
E128W: 103%
L93M: 80%
V43C: 82.2%
S150K: 75.2%
G23N: 98.8%
E139F: 20.7%
V62I: 106%
V40C: 62.1%
E38K: 89.6%

Excerpt of the above (set 4):
UUUGAUGACAGUCUGCAGGAGCUGCCUGGUGAAGUACCUGGAGGAGAACAACACCUGCCCCACCUGCAGGAUUGUGAUCCACCAGAGCCA: -0.88
UCCUGUGCUACACAUCGUAUGUACCGAAUCGGGGUUUUUUUGGGGUUUUUGGGGAGGGGAAAGUAUUAUGUUACGCCGUUCGGAUCUGCA: 0.634
UGGGAGGUGGAUUUUGUUUAUUUUUUUAGCUCAUUUCCAGGGGUGGGAAUUUUUUUUUAAUAUGUGUCAUGAGUAAAGUUGUUUUUGAAA: 0.377
AAGUCCUGUGCUACACAUCGUAUGUACCGAAUCGGGCCCCGGGGCCCCGGCCCCGGGAAAGUAUUAUGUUACGCCGUUCGGAUCUGCACU: -0.792
CCUCAAGUCCUGUGCUACACAUCGUAUGUACCGAAUCGGGGUUGGUUGGUUGGAAAGUAUUAUGUUACGCCGUUCGGAUCUGCACUUCCA: 0.0688
CAAGUCCUGUGCUACACAUCGUAUGUACCGAAUCGGAAAAAGGAAAAAGGUUUGGAAAGUAUUAUGUUACGCCGUUCGGAUCUGCACUUC: -1.44
GUCCUGUGCUACACAUCGUAUGUACCGAAUCGGGGAAAAAGGGGUUUUUGGGGAGGGGAAAGUAUUAUGUUACGCCGUUCGGAUCUGCAC: 0.439
CUCAAGUCCUGUGCUACACAUCGUAUGUACCGAAUCGGAAGGGAAGGAAGGGGAAAGUAUUAUGUUACGCCGUUCGGAUCUGCACUUCCA: 0.169
CUGUGCUACACAUCGUAUGUACCGAAUCGGGAAAAAAAGGAAAAAAAGGGGAAAAAAAGGGAAAGUAUUAUGUUACGCCGUUCGGAUCUG: -0.849
